# Experimental data gathered from unrelated publications.
# A part holds a random share of what one study measured.
# UniProt P10721, sequence (whole entry, unmodified, looked up): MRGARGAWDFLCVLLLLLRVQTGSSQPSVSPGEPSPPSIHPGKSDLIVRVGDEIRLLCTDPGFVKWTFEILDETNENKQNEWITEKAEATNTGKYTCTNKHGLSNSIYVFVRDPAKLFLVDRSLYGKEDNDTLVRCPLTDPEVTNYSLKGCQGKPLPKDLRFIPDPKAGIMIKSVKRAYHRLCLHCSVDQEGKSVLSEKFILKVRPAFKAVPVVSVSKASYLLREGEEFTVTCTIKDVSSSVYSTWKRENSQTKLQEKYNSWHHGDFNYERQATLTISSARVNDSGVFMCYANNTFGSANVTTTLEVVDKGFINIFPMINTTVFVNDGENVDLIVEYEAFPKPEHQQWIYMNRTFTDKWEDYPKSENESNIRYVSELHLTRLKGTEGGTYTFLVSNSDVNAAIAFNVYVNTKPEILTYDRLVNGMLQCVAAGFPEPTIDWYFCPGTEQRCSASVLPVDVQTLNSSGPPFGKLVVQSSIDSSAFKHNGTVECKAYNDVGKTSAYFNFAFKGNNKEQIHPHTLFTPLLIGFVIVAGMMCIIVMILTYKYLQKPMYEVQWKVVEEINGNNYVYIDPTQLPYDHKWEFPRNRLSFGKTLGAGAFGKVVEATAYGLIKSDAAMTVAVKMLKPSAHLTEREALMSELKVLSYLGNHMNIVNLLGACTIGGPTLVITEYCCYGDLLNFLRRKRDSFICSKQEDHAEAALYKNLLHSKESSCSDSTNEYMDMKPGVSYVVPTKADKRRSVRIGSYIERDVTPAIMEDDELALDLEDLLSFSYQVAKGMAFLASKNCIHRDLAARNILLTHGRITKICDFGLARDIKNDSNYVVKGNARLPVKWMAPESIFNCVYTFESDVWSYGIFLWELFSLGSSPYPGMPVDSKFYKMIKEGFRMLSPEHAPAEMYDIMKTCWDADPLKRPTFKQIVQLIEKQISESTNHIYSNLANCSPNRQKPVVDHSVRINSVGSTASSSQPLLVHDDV
# UniProt P42336, sequence (whole entry, unmodified, looked up): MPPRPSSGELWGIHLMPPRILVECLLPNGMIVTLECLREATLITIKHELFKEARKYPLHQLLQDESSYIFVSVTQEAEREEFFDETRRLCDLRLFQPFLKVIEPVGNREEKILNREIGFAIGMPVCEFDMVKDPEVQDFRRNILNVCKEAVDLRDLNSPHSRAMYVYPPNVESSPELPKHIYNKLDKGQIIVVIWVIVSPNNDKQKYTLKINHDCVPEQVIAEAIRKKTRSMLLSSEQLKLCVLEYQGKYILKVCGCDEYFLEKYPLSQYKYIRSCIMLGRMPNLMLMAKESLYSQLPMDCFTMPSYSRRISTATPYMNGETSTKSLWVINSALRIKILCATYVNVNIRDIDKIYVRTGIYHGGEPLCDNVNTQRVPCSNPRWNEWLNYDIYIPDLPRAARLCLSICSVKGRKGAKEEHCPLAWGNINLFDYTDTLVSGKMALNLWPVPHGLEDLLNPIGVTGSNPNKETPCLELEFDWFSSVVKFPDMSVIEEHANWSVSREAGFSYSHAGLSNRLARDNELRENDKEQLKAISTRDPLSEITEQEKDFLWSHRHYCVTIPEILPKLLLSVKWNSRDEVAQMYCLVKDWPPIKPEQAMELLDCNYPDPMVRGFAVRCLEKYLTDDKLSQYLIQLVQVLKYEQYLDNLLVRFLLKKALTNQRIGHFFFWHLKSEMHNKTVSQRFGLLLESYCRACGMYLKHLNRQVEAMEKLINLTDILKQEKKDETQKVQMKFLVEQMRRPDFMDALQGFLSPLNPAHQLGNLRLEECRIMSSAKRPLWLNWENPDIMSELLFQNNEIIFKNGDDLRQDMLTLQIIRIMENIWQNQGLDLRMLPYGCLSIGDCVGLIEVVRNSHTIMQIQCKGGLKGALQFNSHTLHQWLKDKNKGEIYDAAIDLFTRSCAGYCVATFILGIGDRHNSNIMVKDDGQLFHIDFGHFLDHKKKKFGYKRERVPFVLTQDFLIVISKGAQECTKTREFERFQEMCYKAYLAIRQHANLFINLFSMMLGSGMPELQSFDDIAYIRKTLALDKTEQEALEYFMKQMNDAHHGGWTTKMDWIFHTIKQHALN
# UniProt Q9NRM7, sequence (whole entry, looked up): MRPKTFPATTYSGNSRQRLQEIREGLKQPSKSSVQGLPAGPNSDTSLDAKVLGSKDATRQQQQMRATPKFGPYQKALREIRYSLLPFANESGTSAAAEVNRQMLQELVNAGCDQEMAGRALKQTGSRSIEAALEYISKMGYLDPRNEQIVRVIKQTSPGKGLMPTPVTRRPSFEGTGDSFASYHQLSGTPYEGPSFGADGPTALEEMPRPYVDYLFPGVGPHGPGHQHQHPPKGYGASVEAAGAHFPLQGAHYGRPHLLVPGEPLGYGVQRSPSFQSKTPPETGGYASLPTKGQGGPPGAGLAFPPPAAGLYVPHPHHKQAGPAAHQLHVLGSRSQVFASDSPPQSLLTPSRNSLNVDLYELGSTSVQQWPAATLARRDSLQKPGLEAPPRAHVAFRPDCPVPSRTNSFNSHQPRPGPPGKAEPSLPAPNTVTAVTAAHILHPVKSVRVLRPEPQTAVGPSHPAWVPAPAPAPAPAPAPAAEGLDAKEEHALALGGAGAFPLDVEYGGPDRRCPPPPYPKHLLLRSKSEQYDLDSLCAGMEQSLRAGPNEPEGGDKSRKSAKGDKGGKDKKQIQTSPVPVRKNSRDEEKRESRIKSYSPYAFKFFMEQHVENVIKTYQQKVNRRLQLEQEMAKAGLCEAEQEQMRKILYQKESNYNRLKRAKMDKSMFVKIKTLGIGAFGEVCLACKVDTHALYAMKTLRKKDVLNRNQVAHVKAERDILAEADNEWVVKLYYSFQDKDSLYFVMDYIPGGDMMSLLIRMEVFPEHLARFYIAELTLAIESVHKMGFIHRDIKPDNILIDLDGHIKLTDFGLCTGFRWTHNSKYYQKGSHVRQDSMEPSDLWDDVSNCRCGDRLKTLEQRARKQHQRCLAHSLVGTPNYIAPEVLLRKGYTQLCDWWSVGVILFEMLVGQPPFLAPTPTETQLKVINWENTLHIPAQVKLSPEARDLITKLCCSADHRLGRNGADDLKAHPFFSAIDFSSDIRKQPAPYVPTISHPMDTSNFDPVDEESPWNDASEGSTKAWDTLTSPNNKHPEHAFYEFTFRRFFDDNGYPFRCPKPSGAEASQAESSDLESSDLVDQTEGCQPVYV
# UniProt Q13976, sequence (whole entry, looked up): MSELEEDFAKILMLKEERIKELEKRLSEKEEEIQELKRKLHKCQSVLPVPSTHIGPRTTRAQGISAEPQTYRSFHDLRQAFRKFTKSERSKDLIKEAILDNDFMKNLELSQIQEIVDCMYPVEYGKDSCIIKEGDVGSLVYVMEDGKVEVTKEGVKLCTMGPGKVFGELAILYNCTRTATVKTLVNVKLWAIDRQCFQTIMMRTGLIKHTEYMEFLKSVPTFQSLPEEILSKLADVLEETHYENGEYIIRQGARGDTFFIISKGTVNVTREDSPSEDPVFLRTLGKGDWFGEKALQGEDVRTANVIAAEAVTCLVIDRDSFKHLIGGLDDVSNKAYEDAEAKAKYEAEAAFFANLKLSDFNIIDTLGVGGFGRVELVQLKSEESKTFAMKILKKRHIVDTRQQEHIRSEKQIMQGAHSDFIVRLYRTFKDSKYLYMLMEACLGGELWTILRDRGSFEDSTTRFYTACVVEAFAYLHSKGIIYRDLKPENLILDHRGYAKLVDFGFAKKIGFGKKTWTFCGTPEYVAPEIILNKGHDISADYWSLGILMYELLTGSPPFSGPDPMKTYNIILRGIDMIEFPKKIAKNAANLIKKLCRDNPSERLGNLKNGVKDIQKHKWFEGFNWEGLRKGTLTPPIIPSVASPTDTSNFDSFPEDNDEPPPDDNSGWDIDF
# UniProt P30542, sequence (whole entry, looked up): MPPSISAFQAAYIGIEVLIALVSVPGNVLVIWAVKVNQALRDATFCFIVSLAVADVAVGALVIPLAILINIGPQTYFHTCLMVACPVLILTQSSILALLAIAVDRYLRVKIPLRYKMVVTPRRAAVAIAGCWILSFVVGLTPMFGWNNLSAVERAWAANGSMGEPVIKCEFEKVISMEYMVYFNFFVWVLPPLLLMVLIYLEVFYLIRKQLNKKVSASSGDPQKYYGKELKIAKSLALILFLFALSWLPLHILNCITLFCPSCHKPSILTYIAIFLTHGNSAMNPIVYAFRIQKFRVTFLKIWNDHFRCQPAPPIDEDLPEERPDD
# UniProt Q96LB0, sequence (whole entry, looked up): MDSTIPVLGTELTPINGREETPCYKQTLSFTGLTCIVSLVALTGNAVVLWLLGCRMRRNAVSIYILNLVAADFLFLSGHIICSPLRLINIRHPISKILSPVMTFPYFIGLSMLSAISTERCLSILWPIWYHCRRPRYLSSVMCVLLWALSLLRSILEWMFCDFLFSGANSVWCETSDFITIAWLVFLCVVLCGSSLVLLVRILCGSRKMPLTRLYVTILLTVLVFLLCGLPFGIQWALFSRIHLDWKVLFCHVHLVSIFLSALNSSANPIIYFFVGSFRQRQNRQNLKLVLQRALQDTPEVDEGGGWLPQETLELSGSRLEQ

# Study 1
# Structure (SMILES): NC(N)=NC(=O)c1nc(Cl)c(N2CCCCCC2)nc1N
# Mode: agonist
# Concentration: 10 µM
# Relative to: untreated
target,read-out,method,fold over basal
"Nociceptin receptor (OPRL1, Homo sapiens, UniProt P41146)",,PRESTO-Tango arrestin recruitment,0.71
"TRHR (Homo sapiens, UniProt P34981)",β-arrestin recruitment,PRESTO-Tango,1.97 fold
"CCR8 (Homo sapiens, UniProt P51685)",β-arrestin recruitment,PRESTO-Tango,0.87
"Trace amine-associated receptor 2 (TAAR2, Homo sapiens, UniProt Q9P1P5)",β-arrestin recruitment,PRESTO-Tango,0.88 fold
"Adhesion G protein-coupled receptor A2 (ADGRA2, Homo sapiens, UniProt Q96PE1)",β-arrestin recruitment,PRESTO-Tango,0.82
"EDNRB (Homo sapiens, UniProt P24530)",β-arrestin recruitment,PRESTO-Tango,0.67
"CASR (Homo sapiens, UniProt P41180)",β-arrestin recruitment,PRESTO-Tango,0.69
"ADRA1B (Homo sapiens, UniProt P35368)",β-arrestin recruitment,PRESTO-Tango,0.8
"Mas-related G-protein coupled receptor member X3 (Homo sapiens, UniProt Q96LB0)",β-arrestin recruitment,PRESTO-Tango,0.6
"Probable G-protein coupled receptor 148 (GPR148, Homo sapiens, UniProt Q8TDV2)",β-arrestin recruitment,PRESTO-Tango,1.87
"ADORA1 (Homo sapiens, UniProt P30542)",β-arrestin recruitment,PRESTO-Tango,0.98
"PTGDR2 (Homo sapiens, UniProt Q9Y5Y4)",β-arrestin recruitment,PRESTO-Tango,1.15
"Probable G-protein coupled receptor 150 (GPR150, Homo sapiens, UniProt Q8NGU9)",β-arrestin recruitment,PRESTO-Tango,1.17

# Study 2
# Target: Diamine acetyltransferase 1 (Homo sapiens, UniProt P21673)
# Mode: inhibitor
# Concentration: 10 µM
# Relative to: control
# Residues (P21673 1-171): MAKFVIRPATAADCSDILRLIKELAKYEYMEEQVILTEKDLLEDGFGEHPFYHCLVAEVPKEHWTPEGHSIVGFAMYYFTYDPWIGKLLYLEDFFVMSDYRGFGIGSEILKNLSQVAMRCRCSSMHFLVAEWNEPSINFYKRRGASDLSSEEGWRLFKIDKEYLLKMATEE
SMILES,remaining activity
CC1=CC(=O)[C@H]2C[C@@H]1C2(C)C,99.9%
COc1cc2oc(=O)ccc2cc1CC=C(C)C,82%
CCOC(=O)c1ccc(O)cc1,92%
C[C@H]1[C@H](C)CC[C@]2(C(=O)O)CC[C@]3(C)C(=CC[C@@H]4[C@@]5(C)C[C@@H](O)[C@H](O)C(C)(C)[C@@H]5CC[C@]43C)[C@H]12,97.1%
CC1(C)CCCC2(C)OC(=O)C=C12 (stereo not shown),102%
COC(=O)c1ccc(O)cc1,92.6%
COc1cc([C@@H]2OC[C@@H]3[C@H]2CO[C@H]3c2cc(OC)c(O)c(OC)c2)cc(OC)c1O,97.3%
C[C@H](CC[C@@H](O[C@@H]1O[C@H](CO[C@@H]2O[C@H](CO)[C@@H](O)[C@H](O)[C@H]2O)[C@@H](O)[C@H](O)[C@H]1O[C@@H]1O[C@H](CO)[C@@H](O)[C@H](O)[C@H]1O)C(C)(C)O)[C@H]1CC[C@@]2(C)[C@@H]3CC=C4[C@@H](CC[C@H](O[C@@H]5O[C@H](CO[C@@H]6O[C@H](CO)[C@@H](O)[C@H](O)[C@H]6O)[C@@H](O)[C@H](O)[C@H]5O)C4(C)C)[C@]3(C)[C@H](O)C[C@]12C,101%
CC1=CC[C@@]23C[C@@H]1C(C)(C)[C@@H]2CC[C@H]3C,80.8%
COc1cc(/C=C/C(=O)NCCc2ccc(O)cc2)ccc1O,83.8%
C[C@@H]1[C@H]2[C@H](O[C@@H]3O[C@H](CO)[C@@H](O)[C@H](O)[C@H]3O)OC=C(C(=O)O)[C@H]2C[C@@H]1O,101%
COc1ccc(O)cc1,84.3%
CC12CCC(C1)C(C)(C)C2O (stereo not shown),108%

# Study 3
# SMILES: C[C@@H]1CN(c2cc(-c3nn(C)c4ccc(OC5(C)CC5)cc34)ncn2)C[C@H](C)O1
# Method: competition with immobilised ligand
# Concentration: 1 µM
target,read-out,remaining binding
"Tyrosine-protein kinase ABL1, non-phosphorylated (ABL1, Homo sapiens, UniProt P00519)",cell-free assay,85%
"EGFR (Homo sapiens, UniProt P00533, L861Q)",cell-free assay,83%
"Ribosomal protein S6 kinase alpha-4, C-terminal kinase domain (RPS6KA4, Homo sapiens, UniProt O75676)",cell-free assay,81%
"LATS2 (Homo sapiens, UniProt Q9NRM7)",cell-free assay,58%
"STK4 (Homo sapiens, UniProt Q13043)",cell-free assay,100%
"KIT (Homo sapiens, UniProt P10721, L576P)",cell-free assay,100%
"PIK3CA (Homo sapiens, UniProt P42336, H1047Y)",cell-free assay,100%
"Ribosomal protein S6 kinase alpha-2, C-terminal kinase domain (RPS6KA2, Homo sapiens, UniProt Q15349)",cell-free assay,100%
"PKN1 (Homo sapiens, UniProt Q16512)",cell-free assay,100%
"HIPK2 (Homo sapiens, UniProt Q9H2X6)",cell-free assay,74%
"TAOK1 (Homo sapiens, UniProt Q7L7X3)",cell-free assay,82%
"CIT (Homo sapiens, UniProt O14578)",cell-free assay,100%
"SBK3 (Homo sapiens, UniProt P0C264)",cell-free assay,100%
"EGFR (Homo sapiens, UniProt P00533, del752-759)",cell-free assay,74%
"KIT (Homo sapiens, UniProt P10721)",cell-free assay,100%
"KIT (Homo sapiens, UniProt P10721, A829P)",cell-free assay,60%
"MAP3K14 (Homo sapiens, UniProt Q99558)",cell-free assay,100%
"PIK3CA (Homo sapiens, UniProt P42336, E542K)",binding,32%
"SRMS (Homo sapiens, UniProt Q9H3Y6)",cell-free assay,83%
"KIT (Homo sapiens, UniProt P10721, V559D/V654A)",cell-free assay,100%
"BMX (Homo sapiens, UniProt P51813)",cell-free assay,93%
"CLK1 (Homo sapiens, UniProt P49759)",cell-free assay,86%
"KIT (Homo sapiens, UniProt P10721, D816V)",cell-free assay,94%
"PRKG1 (Homo sapiens, UniProt Q13976)",cell-free assay,100%
"CDKL5 (Homo sapiens, UniProt O76039)",cell-free assay,64%

# Study 4
# Target: Calcium/calmodulin-dependent protein kinase type II subunit alpha (CAMK2A, Homo sapiens, UniProt Q9UQM7)
# UniProt Q9UQM7, sequence (whole entry, looked up): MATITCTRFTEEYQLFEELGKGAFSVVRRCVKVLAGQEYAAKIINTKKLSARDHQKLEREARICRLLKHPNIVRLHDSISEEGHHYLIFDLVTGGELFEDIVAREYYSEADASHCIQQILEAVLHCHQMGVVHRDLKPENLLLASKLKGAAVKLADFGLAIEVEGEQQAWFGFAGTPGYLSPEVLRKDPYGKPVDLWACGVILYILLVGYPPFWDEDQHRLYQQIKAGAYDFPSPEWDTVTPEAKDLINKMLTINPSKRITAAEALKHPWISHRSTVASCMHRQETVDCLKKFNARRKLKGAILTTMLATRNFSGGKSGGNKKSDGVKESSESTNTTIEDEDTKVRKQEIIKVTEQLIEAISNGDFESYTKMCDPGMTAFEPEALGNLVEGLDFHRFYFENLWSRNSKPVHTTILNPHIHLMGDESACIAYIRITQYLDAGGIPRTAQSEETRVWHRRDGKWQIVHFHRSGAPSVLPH
# Read-out: enzyme activity
# Mode: inhibitor
# Concentration: 10 µM
Structure (SMILES),inhibition
OCCc1c[nH]c2ccccc12,-11%
NC(=O)NCCC(=O)O,-9%
N[C@@H](CCO)C(=O)O,-19%
N#Cc1ccc(C(c2ccc(C#N)cc2)n2cncn2)cc1,-6%
CN1c2c(nc(N)[nH]c2=O)NCC1CNc1ccc(C(=O)N[C@@H](CCC(=O)O)C(=O)O)cc1 (stereo partly shown),-31%
C[C@H]1O[C@H](O[C@H]2[C@H](O)[C@@H](O)[C@@H](O[C@@H]([C@H](O)[C@@H](O)C=O)[C@H](O)CO)O[C@@H]2CO)[C@H](O)[C@@H](O)[C@@H]1N[C@H]1C=C(CO)[C@@H](O)[C@H](O)[C@H]1O,59%
CN(C)CC[C@@H](c1ccc(Cl)cc1)c1ccccn1,-7%
Oc1ccc([C@H]2COc3cc(O)ccc3C2)cc1,-57%
CC1(C)CCC[C@](C)([C@H]2CC[C@]3(C)[C@@H]2[C@H](O)C[C@@H]2[C@@]4(C)CC[C@H](O)C(C)(C)[C@@H]4[C@H](O)C[C@]23C)O1,13%
COc1cc(OC)c2c(=O)cc(-c3cc(OC)c(OC)c(OC)c3)oc2c1,7%
Clc1ccc(Cn2c(CN3CCCC3)nc3ccccc32)cc1,-12%
CSCCC(=O)O,-1%
CCCCCCCCCCCCCCCCCCCCCCCC(=O)O,-2%
